Results of several laboratories.
Numbered parts are unrelated; each lists some results of a single study. Positions count from the first letter of the parent shown.

Study 1
Target: CCND2, cyclin fold, Cln2 fusion (human)
Method: yeast growth competition, sequencing
Matrix: yeast
Notes: weak parent motif
Reference: not given
Direction: higher = stronger binding
Starting sequence: DNAH7 docking peptide (human); HELFQRLDFDNDG
| Variant | normalised enrichment score |
| --- | --- |
| L3A | 0.0284 |
| H1A | 0.33 |
| N11A | 0.198 |
| F4A | -0.115 |
| R6A | 0.023 |
| Q5A | 0.026 |
| E2A | 0.175 |

Study 2
Target: ABI1, truncated, D143A, DHFR fusion (Arabidopsis thaliana)
Method: DHFR PCA, deep sequencing
Matrix: yeast
Notes: methotrexate growth selection, single substitutions
Added: (+)-ABA 0.032 µM
Reference: wild-type fitted maximum
Direction: higher = stronger binding
Starting sequence: PYL1, truncated, DHFR fusion (Arabidopsis thaliana); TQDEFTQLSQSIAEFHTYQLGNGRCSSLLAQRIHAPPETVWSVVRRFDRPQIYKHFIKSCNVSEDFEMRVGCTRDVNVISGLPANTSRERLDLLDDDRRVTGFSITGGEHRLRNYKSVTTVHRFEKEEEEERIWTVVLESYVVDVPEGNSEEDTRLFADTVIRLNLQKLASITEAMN
| Variant | relative binding score |
| --- | --- |
| C60L | 8.48% |
| S63T | 13.6% |
| T173V | 11.6% |
| E67V | 37.4% |
| I105N | -0.346% |
| I172G | -3.48% |
| A30M | 34% |
| I172P | -9.04% |
| A35K | -6.15% |
| V43G | -4.46% |
| I12T | -4.1% |
| E152V | 3.99% |
| F103M | 0.613% |
| R113T | 15% |
| S11M | 17.2% |
| S171A | 39.1% |

Study 3
Target: RNA binding protein fox-1 homolog 2, RRM domain, GST-SBP tag (RBFOX2, Homo sapiens, UniProt O43251-10, residues 100-194)
Method: RNA Bind-n-Seq
Molecule type: RNA
Matrix: in vitro
Tested at: 365 nM
Notes: natural RNA segment, single round, ends assumed
Reference: no-protein control
Direction: higher = stronger binding
Constant ends, left off below: GGGAGUUCUACAGUCCGACGAUC … UGGAAUUCUCGGGUGCCAA
Residues (chain): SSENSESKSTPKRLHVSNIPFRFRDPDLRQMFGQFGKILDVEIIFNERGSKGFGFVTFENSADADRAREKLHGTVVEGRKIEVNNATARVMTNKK
| Oligonucleotide | RBNS enrichment (R) |
| --- | --- |
| ACUGUUCGUUAAAAUAAGCAUUCCCUUGACAGCACAGGAAGAAAAGCGAGGGAAAUGUAUGGAUUAUAUUAAAUGUGGGUUACUACACAAGAGGCCGAACAUUCCAAGUA | 0.581 |
| GGUUAUGAGGCCUGUCAGGUCUAUGCACAGCAGGGACUCUGUCUUUGGUGAGCUUUCUCAGAGCCAUGGCUGCAGGCAUGUGAGCUGCGGGAACUUCCUCCUGAACUACC | 1.1 |
| UUUUUUCUUCGUCCUUUUGGUUUAAAAAGUUUCACGUCUUGGUGCCUUUUGUGUGAUGCGCCUUGCUGAUGGCUUGACAUGUGCAAUUGUGAGGGACAUGCUCACCUCUA | 1.31 |
| UAGAAGUGGGUGACCCAUUGAGGACACAUGAUGUGAGGUAUUUCUGCCGGAUUCUAGGUUAGCAAAGACUCAAAUGGGUGACUCAUGAAUGAAGGGAGAACAGGCACAGG | 2.16 |
| UGGCAUUUUCCCCAGAAUUGUGAGCCAAAGCCUAUAGUAAUUGCAGACAGCAAAUGAUUCCGGAUCUCUAAAAGGCUCUCUCAGAUGAAAAGGGAGUAAAGGAAAAAAGA | 0.419 |
| CUGCGAACUCUCAGGACUACCGUUACCAAGAGGUUAGGUGAAGUGGUUUAAACCAAACGGAACUCUUCAUCUUAAACUACACGUUGAAAAUCAACCCAAUAAUUCUGUAU | 0.298 |
| UGGUGCCGUUUGCUGGCUUCUCCACUAGGGUUUCAGGACAGACUACCUAGGAACUGCCUCAACCUCCCACCAGUUCUUCCCUGCCCCUCCCUUCUGUCUAGAUUCACUUC | 0.549 |
| GUCCACUUCUGAAACUCCUGUUCCUAAUGACAAAGUGGCUAUGUGCAAUGGAUAUAAAUGUACUGUGAGUCUCUCGGUUCAGUAUUAGGUUCACUUUAAUUUAUUUAUGC | 0.719 |

Study 4
Target: Homeobox protein Hox-B13, full length (HOXB13, Homo sapiens, UniProt Q92826, residues 1-284)
Sequence of UniProt Q92826 (whole entry, looked up): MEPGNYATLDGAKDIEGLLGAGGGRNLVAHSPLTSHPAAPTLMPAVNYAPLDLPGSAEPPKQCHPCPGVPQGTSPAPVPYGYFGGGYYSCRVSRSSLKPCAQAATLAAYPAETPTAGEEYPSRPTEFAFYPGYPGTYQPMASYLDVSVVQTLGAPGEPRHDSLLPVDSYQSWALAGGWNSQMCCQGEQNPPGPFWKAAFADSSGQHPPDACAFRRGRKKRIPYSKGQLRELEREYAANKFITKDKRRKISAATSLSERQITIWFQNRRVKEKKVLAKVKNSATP
Method: protein-binding microarray
Molecule type: hairpin DNA
Matrix: in vitro
Tested at: not given
Notes: whole hairpin DNA, median over replicate spots
Reference: not given
Direction: higher = stronger binding
| Oligonucleotide | median fluorescence [a.u.] |
| --- | --- |
| GAGGCCGTTTTATCGGGGCCTCCTGGCCCCGATAAAACGGCCTCACACTC (5mC at 14) | 4140 |
| GAGGCCGTTTTACCAGGGCCTCCTGGCCCTGGTAAAACGGCCTCACACTC (5mC at 14) | 4240 |
| GAGGCCCGTTTATTGGGGCCTCCTGGCCCCAATAAACGGGCCTCACACTC (5mC at 7) | 4730 |
| GAGGCCGTTTTATTGGGGCCTCCTGGCCCCAATAAAACGGCCTCACACTC (5mC at 28) | 5030 |
| GAGGCCCTTTTACGAGGGCCTCCTGGCCCTCGTAAAAGGGCCTCACACTC | 4630 |
| GAGGCCGTTCGATTGGGGCCTCCTGGCCCCAATCGAACGGCCTCACACTC | 3950 |
| GAGGCCGCTTTACGAGGGCCTCCTGGCCCTCGTAAAGCGGCCTCACACTC (5mC at 8) | 4950 |
| GAGGCCGCGTTACGAGGGCCTCCTGGCCCTCGTAACGCGGCCTCACACTC | 4690 |
| GAGGCCGTTTTCCGAGGGCCTCCTGGCCCTCGGAAAACGGCCTCACACTC | 3760 |
| GAGGCCGTATTACGAGGGCCTCCTGGCCCTCGTAATACGGCCTCACACTC | 4470 |
| GAGGCCGTTTTATGGGGGCCTCCTGGCCCCCATAAAACGGCCTCACACTC (5mC at 31) | 6280 |
| GAGGCCGTTTTATTGGTGCCTCCTGGCACCAATAAAACGGCCTCACACTC | 5270 |
| GAGGCCGTTTTATTGGGGCCTCCTGGCCCCAATAAAACGGCCTCACACTC (5mC at 29) | 4840 |
| GAGGCCGTTTTATTGCGGCCTCCTGGCCGCAATAAAACGGCCTCACACTC (5mC at 16) | 4720 |
| GAGGCCGTTTTATTGTGGCCTCCTGGCCACAATAAAACGGCCTCACACTC | 4780 |
| GAGGCCGTTCGACGAGGGCCTCCTGGCCCTCGTCGAACGGCCTCACACTC (5mC at 34) | 4140 |

A few entries again (study 2):
| Variant | relative binding score |
| --- | --- |
| A30M | 34% |
| C60L | 8.48% |
| V43G | -4.46% |
